Measured values of several laboratories.
Each numbered part is a random draw from the data of one study; scales do not carry over between parts.

Sample 1
Target: Interferon regulatory factor 5, full length, phosphomimetic (IRF5, Homo sapiens, UniProt Q13568-2, residues 1-514, K96S/S451D/S453D/S456D/S462D)
Technique: protein-binding microarray
Form: double-stranded DNA, one strand shown
Medium: in vitro
Tested at: 250 nM
Setting: 60-bp whole probe
Added: salmon DNA 0.4 mg/ml
Reference: random background probes
Direction: higher = stronger binding
Endpoint: log fluorescence
Oligonucleotide = GCCTAGCACTCAGATATCAGTATCGATTAGTGCTAGGTCTTGATTCGCTTGACGCTGCTG; result = 8.02 z-score
Oligonucleotide = GCCTAGCACTCCAAATTGTCTCTGTCCCTGTGCTAGGTCTTGATTCGCTTGACGCTGCTG; result = 0.115 z-score
Oligonucleotide = GCCTAGCACGACGGCATCGACACTGGGGACGTGCTAGTCTTGATTCGCTTGACGCTGCTG; result = -0.329 z-score
Oligonucleotide = GCCTAGCACTCATATATATATTATATAACTGTGCTAGTCTTGATTCGCTTGACGCTGCTG; result = 0.746 z-score

Sample 2
Target: Sal-like protein 4, full length isoform A (SALL4, Homo sapiens, UniProt Q9UJQ4, residues 1-1053)
Chain of UniProt Q9UJQ4 (whole entry, looked up): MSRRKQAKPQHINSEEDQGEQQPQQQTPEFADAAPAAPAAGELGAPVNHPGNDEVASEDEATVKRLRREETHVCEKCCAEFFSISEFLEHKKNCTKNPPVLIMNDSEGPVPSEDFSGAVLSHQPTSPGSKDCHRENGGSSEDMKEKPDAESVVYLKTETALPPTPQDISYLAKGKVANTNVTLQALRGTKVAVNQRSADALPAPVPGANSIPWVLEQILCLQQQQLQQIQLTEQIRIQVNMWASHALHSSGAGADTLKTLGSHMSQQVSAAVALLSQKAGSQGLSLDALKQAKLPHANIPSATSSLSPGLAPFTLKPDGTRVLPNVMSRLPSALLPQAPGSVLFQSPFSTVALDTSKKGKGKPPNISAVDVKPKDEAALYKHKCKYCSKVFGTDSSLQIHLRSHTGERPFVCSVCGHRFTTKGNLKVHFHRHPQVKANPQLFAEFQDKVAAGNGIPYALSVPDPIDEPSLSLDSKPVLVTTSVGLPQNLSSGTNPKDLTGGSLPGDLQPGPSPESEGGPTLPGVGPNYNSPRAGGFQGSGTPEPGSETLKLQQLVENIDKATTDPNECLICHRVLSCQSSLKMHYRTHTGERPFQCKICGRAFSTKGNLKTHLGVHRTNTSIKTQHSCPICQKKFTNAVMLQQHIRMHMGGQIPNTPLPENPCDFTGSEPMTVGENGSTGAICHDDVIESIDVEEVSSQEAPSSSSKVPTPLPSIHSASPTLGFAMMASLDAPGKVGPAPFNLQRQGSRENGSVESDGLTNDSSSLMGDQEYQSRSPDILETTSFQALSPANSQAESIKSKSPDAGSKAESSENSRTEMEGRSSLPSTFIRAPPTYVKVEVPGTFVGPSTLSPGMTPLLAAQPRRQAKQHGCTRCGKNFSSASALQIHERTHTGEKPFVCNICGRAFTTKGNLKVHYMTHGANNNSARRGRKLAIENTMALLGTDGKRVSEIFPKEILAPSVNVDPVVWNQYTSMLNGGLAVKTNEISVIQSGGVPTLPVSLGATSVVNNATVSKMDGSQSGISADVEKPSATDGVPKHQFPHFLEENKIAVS
Technique: universal PBM
Form: double-stranded DNA, one strand shown
Medium: in vitro
Tested at: 600 nM
Setting: 8-mer, flanks averaged, mean of replicates
Direction: higher = stronger binding
Endpoint: E-score
Oligonucleotide = ACTCTGAA; result = 0.135
Oligonucleotide = TCGAATCA; result = -0.0175
Oligonucleotide = CCGCTTAG; result = -0.35
Oligonucleotide = ATGTGAAC; result = 0.131

Sample 3
Target: RING finger protein unkempt homolog, zinc fingers 1-6, GST-SBP tag (UNK, Homo sapiens, UniProt Q9C0B0, residues 30-357)
Chain of UniProt Q9C0B0 (30-357, looked up): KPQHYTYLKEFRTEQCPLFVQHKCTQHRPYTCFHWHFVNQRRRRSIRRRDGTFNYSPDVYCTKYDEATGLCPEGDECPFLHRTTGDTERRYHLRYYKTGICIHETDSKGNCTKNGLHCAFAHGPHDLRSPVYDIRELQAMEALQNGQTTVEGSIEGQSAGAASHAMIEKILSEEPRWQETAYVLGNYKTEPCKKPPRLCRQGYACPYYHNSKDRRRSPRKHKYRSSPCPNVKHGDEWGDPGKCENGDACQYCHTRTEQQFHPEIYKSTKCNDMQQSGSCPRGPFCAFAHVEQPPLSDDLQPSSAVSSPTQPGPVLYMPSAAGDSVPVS
Technique: RNA Bind-n-Seq
Form: RNA
Medium: in vitro
Tested at: not given
Setting: RNA with constant flanks, human and mouse sites, ends assumed
Reference: input RNA pool
Direction: higher = stronger binding
Endpoint: bound/input enrichment
Oligonucleotide = GGGAGUUCUACAGUCCGACGAUCUCUCUACCUCACCUCAGUGGUCAGGGCUGCCUCCACCCAGCAUUGGAAGAGGUCAUUGUGAAUAGAAUAGUUGAUGUGCUCAGCUGUUCACUGAACCCCUGAGCAUGAGUUGAACAUAGACAACAGAGGAUUGAGCAUCA; result = 3.81 ratio
Oligonucleotide = GGGAGUUCUACAGUCCGACGAUCCUCAAGCUACCAAAAAGAAAGUGGCAAUAUAUUGACUCAGGAUCUCAAAGCUGGGUGUUUUAGCAUUACUGUGUAAAGACUUGAAGGGACAGAAGUGAAGAAAAUAAGCUGCAAUUUUGUCAACAGAGGAUUGAGCAUCA; result = 0.288 ratio
Oligonucleotide = GGGAGUUCUACAGUCCGACGAUCACUGCCAGGAGGGCAAACCAAAGAGAACCCUGUACAGUAAGAAAUAUGGUGUGGACCUCAUCAGAUACACUCAUGCAGCAAACACAGUUGUUUACAGCUCUAACAAAAUAGACGAUACUACAACAGAGGAUUGAGCAUCA; result = 0.336 ratio

Other studies, line by line
Molecule = PhoQ, residues 284 288 289 292 302 303 TGYLSA; target = PhoP, residues 12 14 15 18 19 NFCKL (Escherichia coli, UniProt P23836); test = Sort-seq, item: YFP reporter; system = E. coli; conditions = PhoQ-PhoP variant library, added: 10 µM Mg2+; scale = reference: high Mg2+ state, higher = stronger signaling; endpoint = fold induction; result = 5.49
